Experimental data pooled from the literature.
Lines come from different studies, so protocols differ.
Organism: Mycobacterium tuberculosis

For `COc1cccc(-c2ccc(C(=O)NCc3c4c(c(C)[nH]c3=O)CCCC4)cc2)c1`, the inhibition was 43.6% (microbial growth, resazurin; H37RV; 25 µg/mL).
`CCN(CC)C(=O)C[C@H](NC(=O)CCc1ccccc1)C(=O)N[C@@H](Cc1ccc(F)cc1)C(=O)NCc1cccc2ccccc12` gave a CFU reduction of no more than 1 log10 CFU (non-replicating bacteria; H37Rv; above twice Ki, 5 days, pH 5.5, together with: 0.5 mM NaNO2).
`Cc1[nH]c(=O)c(CNC(=O)c2ccc([N+](=O)[O-])cc2)c2c1CCCC2` gave an inhibition of 12.6% (microbial growth, resazurin; H37RV; 25 µg/mL).
`O=C(C1CCCCC1)N1CCN(S(=O)(=O)c2cccc3cnccc23)CC1` has an MIC90 of 0.07 µM (guaB2-guaB3 Tet-OFF attB::guaB3; together with: anhydrotetracycline).
`CCOC(=O)COc1ccc2ccc3oc([N+](=O)[O-])cc3c2c1` has an MIC90 of 0.031 to 0.5 µg/mL (H37Rv).
`COc1cc(-c2ccc(C(=O)NCc3c4c(c(C)[nH]c3=O)CCCC4)cc2)cc(C(F)(F)F)c1` has an inhibition of 36.9% (microbial growth, resazurin; H37RV; 25 µg/mL).
For `O=[N+]([O-])c1cc2c(ccc3cc(Br)ccc32)o1`, the MIC90 was 0.031 to 0.5 µg/mL (H37Rv).
`CO[C@H]1/C=C/O[C@@]2(C)Oc3c(C)c(O)c4c(O)c(c(/C=N/N5CCN(C)CC5)c(O)c4c3C2=O)NC(=O)/C(C)=C\C=C\[C@H](C)[C@H](O)[C@@H](C)[C@@H](O)[C@@H](C)[C@H](OC(C)=O)[C@@H]1C` has an IC50 of 130 nM (intracellular bacterial growth; J774.1 mouse macrophages, mc^26206).
`O=[N+]([O-])c1cc2c(ccc3c2ccc2cc([N+](=O)[O-])oc23)o1` gave an MIC90 of 0.031 to 0.5 µg/mL (H37Rv).
The IC50 of `NNC(=O)c1ccncc1` is reported as 440 nM (intracellular bacterial growth; J774.1 mouse macrophages, mc^26206).
The IC90 of `O=[N+]([O-])c1cc(C(F)(F)F)ccc1NCCc1c[nH]c2ccc(O)cc12` is reported as 9.3 µM (bacterial growth; infected macrophages, H37Rv; 3 days).
The inhibition of `COc1ccc(C(=O)NCc2c3c(c(C)[nH]c2=O)CCCC3)cc1` is reported as 13.3% (microbial growth, resazurin; H37RV; 25 µg/mL).
`COc1ccc2c(ccc3oc([N+](=O)[O-])cc32)c1` has an MIC90 of 0.031 to 0.5 µg/mL (H37Rv).
With `CO[C@@H](C(=O)NC1Cc2ccccc2C1)[C@H](O)[C@@H](O)[C@H](O)/C=C/C(C)(C)C` the inhibition was 29% (microbial growth, resazurin; ATCC27294 H37RV; 128 µM, 7 days).

Excerpt of the above:
`O=C(C1CCCCC1)N1CCN(S(=O)(=O)c2cccc3cnccc23)CC1` has an MIC90 of 0.07 µM (guaB2-guaB3 Tet-OFF attB::guaB3; together with: anhydrotetracycline).
